Assay results from different studies.
Lines come from different studies, so protocols differ. Numbers after ± are the reported error.

Chains of the proteins cited; added tags and fusions are not shown. Residues count along the entry.
UniProt P45983, 1-384 isoform 3: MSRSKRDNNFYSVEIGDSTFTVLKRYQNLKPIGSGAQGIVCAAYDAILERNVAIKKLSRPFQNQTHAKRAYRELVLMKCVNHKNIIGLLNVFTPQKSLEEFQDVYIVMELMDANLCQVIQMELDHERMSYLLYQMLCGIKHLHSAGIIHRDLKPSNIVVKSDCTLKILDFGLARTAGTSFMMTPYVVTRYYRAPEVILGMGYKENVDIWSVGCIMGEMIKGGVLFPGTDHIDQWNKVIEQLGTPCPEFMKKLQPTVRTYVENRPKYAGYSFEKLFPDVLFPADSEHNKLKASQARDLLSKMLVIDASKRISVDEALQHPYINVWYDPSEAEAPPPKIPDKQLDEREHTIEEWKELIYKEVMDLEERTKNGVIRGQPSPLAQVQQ

Compound | tested on | test | system | conditions | scale | endpoint | result
NS(=O)(=O)c1ccc(Cc2c(-c3ccc(F)c(C4CCCCC4)c3)nn(-c3nc(C(=O)O)cs3)c2CC2CC2)cc1F | HEK293T | lactate production |  | 1 h |  | IC50 | 400 nM
N[C@@H](c1nc2cc(-c3ccncc3F)sc2c(=O)[nH]1)C1CC1 | COLO 205 | cell growth, MTT |  |  |  | IC50 | 385 ± 19.3 nM
CC[C@@H](C)[C@H](N)C(=O)N1Cc2ccc(F)cc2C1 | MV4-11 | cell viability, CellTiter-Glo |  |  |  | IC50 | 200 nM
Cc1n[nH]c(C)c1CCOC(=O)c1cccc2c1oc(=O)n2C | WI-38 | cytotoxicity |  |  |  | IC50 | > 100000 nM
C=CC(=O)N1CCC(c2cc(Nc3cc4n(n3)CCOC4)c3ncnn3c2)C1 (single isomer, unassigned) | Ramos | calcium flux, FLIPR |  | 1 h preincubation, with: anti-IgM |  | IC50 | > 1000 nM
O=C(O)c1cc(Cl)cc(N2C(=O)c3ccc4c5c(ccc(c35)C2=O)C(=O)N(c2cc(Cl)cc(C(=O)O)c2Cl)C4=O)c1Cl | PC-12 | neurite outgrowth |  | 72 h, with: 500 pM NGF |  | IC50 | > 100000 nM
CN(C)C(=O)Cn1cc(-c2ccc(-c3cncc4ccncc34)cc2)cn1 | HBL1 | cell growth, viability |  |  |  | IC50 | < 1000 nM
CC(C)[C@H](N)c1nc2cc(-c3c[nH]cn3)sc2c(=O)[nH]1 | COLO 205 | cell growth, MTT |  |  |  | IC50 | > 10000 nM
Cc1cnc(Nc2ccc(N3CCN(C)CC3)cc2)nc1Nc1cccc(NS(=O)(=O)C(C)(C)C)c1 | UKE1 | cell growth, CellTiter Blue |  | 72 h |  | IC50 | 130 nM
Nc1ccc(Cl)c2cccnc12 | HUVEC | cell viability, calcein-AM |  |  |  | IC50 | 3510 ± 1100 nM
COC(=O)[C@@]1(C)C=C(C(=O)Nc2cccc(C(=O)NC34CC(Nc5nccc(-c6cccnc6)n5)(C3)C4)c2)C(=O)CC1 | MAPK8 (Homo sapiens, UniProt P45983) | kinase activity, inhibitor |  | 8.363e-05 µM, with: 10 mM GSH |  | remaining activity | 1.02 fraction of control
Cc1cnc(C#Cc2cccc(-c3nn(-c4nc(C(=O)O)cs4)c(CCC4CC4)c3Cc3ccc(S(N)(=O)=O)c(F)c3)c2)s1 | HEK293T | lactate production |  | 1 h |  | IC50 | 400 nM
CC(C)[C@H](N)c1nc2cc(-c3ccncn3)sc2c(=O)[nH]1 | COLO 205 | cell growth, MTT |  |  |  | IC50 | 346 ± 10.4 nM
COc1cc(C(=O)N2CCC(N3CCN(C)CC3)CC2)ccc1Nc1ncc2c(n1)N(C1CCCC1)c1ccccc1C(=O)N2C | 797 NUT midline carcinoma cells | viability, CellTiter-Glo |  | 3 days |  | IC50 | 664 ± 14 nM
CC(=NN=c1[nH]c2cc(F)c(F)cc2n1C)c1ccc(F)cn1 | MDA-MB-453 | viability, MTT |  | 72 h |  | IC50 | 17.5 nM
CCOc1cc(C(C)(C)C)ccc1C1=N[C@H](c2ccc(Cl)cc2)[C@H](c2ccc(Cl)cc2)N1C(=O)N1CCN(CC(=O)NCCOCCOCCOCCNC(=O)CN2CCN(C(=O)N3C(c4ccc(C(C)(C)C)cc4OCC)=N[C@H](c4ccc(Cl)cc4)[C@@H]3c3ccc(Cl)cc3)CC2=O)C(=O)C1 | HCT-116 p53 wild type | cell growth, CCK-8 |  |  |  | IC50 | 8700 ± 2200 nM
COc1cc([C@@H]2c3cc4c(cc3[C@](O)(C3(O)CCOCC3)[C@H]3COC(=O)[C@H]23)OCO4)cc(OC)c1OC | Leishmania |  | mouse splenocytes |  | baseline: CC50 over amastigote EC50 | selectivity index | 0.7
COc1cccc2c1C(=O)N1CCc3c([nH]c4ccccc34)C1N2Cc1ccc(C(=O)NCCCC(=O)NO)cc1 (racemic) | MCF7 | cell viability, CCK-8 |  |  |  | IC50 | > 10000 nM
COC(=O)[C@@H]1C(c2nc3cncnc3[nH]2)=Cc2cc3c(cc2[C@H]1c1cc(OC)c(OC)c(OC)c1)OCO3 | Leishmania infantum | iRFP fluorescence | mouse splenocytes infected, amastigote, iRFP, ex vivo splenic explant | 48 h |  | EC50 | 43.4 ± 2.1 µM
Cc1cnc(C#Cc2cccc(-c3nn(-c4nc(C(=O)O)cs4)c(CC4CC4)c3Cc3ccc(S(N)(=O)=O)c(F)c3)c2)o1 | HEK293T | lactate production |  | 1 h |  | IC50 | 1600 nM

Some of these lines once more:
Compound | tested on | test | system | conditions | scale | endpoint | result
COC(=O)[C@@H]1C(c2nc3cncnc3[nH]2)=Cc2cc3c(cc2[C@H]1c1cc(OC)c(OC)c(OC)c1)OCO3 | Leishmania infantum | iRFP fluorescence | mouse splenocytes infected, amastigote, iRFP, ex vivo splenic explant | 48 h |  | EC50 | 43.4 ± 2.1 µM
